{"data": "Measured values from different studies", "note": "Several values in a cell are separate wells, animals, samples, runs or records. ± gives the spread as reported."}
{"Molecule": "O=C(Nc1c(Cl)cncc1Cl)c1ccc(OC(F)F)c(OCC2CC2)c1", "system": "human adolescents, 12-17 years, plasma", "setting": "topical, 0.3% cream once daily, day 15", "Tmax": "10.4 h"}
{"Molecule": "CO[C@H]1C[C@@H]2CC[C@@H](C)[C@@](O)(O2)C(=O)C(=O)N2CCCC[C@H]2C(=O)O[C@H]([C@H](C)C[C@@H]2CC[C@@H](O)[C@H](OC)C2)CC(=O)[C@H](C)/C=C(\\C)[C@@H](O)[C@@H](OC)C(=O)[C@H](C)C[C@H](C)/C=C/C=C/C=C/1C", "system": "healthy adult human, blood", "setting": "0.5 mg single dose, median, together with: ritonavir-containing 3D regimen", "Tmax": "6 h"}
{"Molecule": "C=C(C)[C@@H]1CC[C@]2(NCCN3CCS(=O)(=O)CC3)CC[C@]3(C)[C@H](CC[C@@H]4[C@@]5(C)CC=C(C6=CC[C@@](CF)(C(=O)O)CC6)C(C)(C)[C@@H]5CC[C@]43C)[C@@H]12", "system": "human, HIV-1 treatment-naive, plasma", "setting": "oral, 200 mg single with food, day 1", "Tmax": "5.53 h"}
{"Molecule": "CON(C)C(=O)N1N=C(c2cc(F)ccc2F)S[C@@]1(CCCN)c1ccccc1", "system": "human", "setting": "intravenous, 1.5 mg/m^2, cycle 1 day 3, median", "Tmax": "1 h"}
{"Molecule": "CN[C@@H]1COc2c(S(=O)(=O)NC(=O)Nc3c4c(cc5c3CCC5)CCC4)cnn2C1", "system": "human", "setting": "oral, 600 mg", "Tmax": "4 h"}
{"Molecule": "COC(=O)c1ccc2c(c1)NC(=O)/C2=C(\\Nc1ccc(N(C)C(=O)CN2CCN(C)CC2)cc1)c1ccccc1", "system": "human, mild liver impairment, plasma", "setting": "oral, 200 mg twice daily, steady state", "Tmax": "4 h"}
{"Molecule": "CC(C)[C@H](N)C(=O)NCCCS(=O)(=O)O", "system": "healthy human, both sexes, plasma", "setting": "oral, 172 mg capsule, median", "Tmax": "0.63 h"}
{"Molecule": "CC(C)(Sc1ccncc1-c1ccc(C#N)c2ccccc12)C(=O)O", "system": "humans, male, normal renal function, fasted, plasma", "setting": "oral, 15 mg", "Tmax": "2.5 h"}
{"Molecule": "Platinum", "assay": "ICP-MS, measured: total platinum", "system": "human, plasma", "setting": "cisplatin, cycle 1 day 1, chemotherapy alone, median", "Tmax": "2 h"}
{"Molecule": "O=C(Cc1cccc(OC(F)(F)F)c1)Nc1ccc(CCCCc2nnc(NC(=O)Cc3ccccn3)s2)nn1", "system": "human patients, plasma", "setting": "oral, 600 mg three times daily fasted, cycle 1 day 15 steady state", "Tmax": "1.03 h"}
{"Molecule": "Cn1c(Cn2ccc(C(F)(F)F)c(Oc3cc(Cl)cc(C#N)c3)c2=O)n[nH]c1=O", "system": "human, plasma", "setting": "oral, 100 mg once daily, median, together with: islatravir 2.25 mg once daily", "Tmax": "2 h"}
{"Molecule": "CN1C(=O)[C@@H](NC(=O)c2nnc(Cc3ccccc3)[nH]2)COc2ccccc21", "system": "human male, plasma", "setting": "oral, 120 mg twice daily, day 1", "Tmax": "2 h"}
{"Molecule": "CC(C)NC[C@@H](C(=O)N1CCN(c2ncnc3c2[C@H](C)C[C@H]3O)CC1)c1ccc(Cl)cc1", "system": "human, Mild hepatic function (Child-Pugh), plasma", "setting": "oral, 100 mg single dose, median", "Tmax": "1 h"}
{"Molecule": "C#C[C@]1(CO)O[C@@H](n2cnc3c(N)nc(F)nc32)C[C@@H]1O", "system": "human, plasma", "setting": "oral, 30 mg once weekly, week 3", "Tmax": "1 h"}
{"Molecule": "CC(C)(/C=C(\\C#N)C(=O)N1CCC[C@@H](n2nc(-c3ccc(Oc4ccccc4)cc3F)c3c(N)ncnc32)C1)N1CCN(C2COC2)CC1", "system": "human, plasma", "setting": "oral, 100 mg single dose, median", "Tmax": "~1 h"}
{"Molecule": "O=C(NC[C@H](O)CO)c1ccncc1Nc1ccc(I)cc1F", "system": "human", "setting": "oral, 45 mg, single dose with FOLFIRI", "Tmax": "2 h"}
{"Molecule": "CC(=O)c1c(C)c2cnc(Nc3ccc(N4CCNCC4)cn3)nc2n(C2CCCC2)c1=O", "system": "human", "setting": "oral, 75 mg/m^2 single dose, day 1", "Tmax": "5.2 ± 2 h"}
{"Molecule": "N#CCNC(=O)c1ccc(-c2ccnc(Nc3ccc(N4CCOCC4=O)cc3)n2)cc1", "system": "human, plasma", "setting": "oral, 100 mg momelotinib once daily, cycle 1 day 15, median, together with: trametinib 1.0 mg once daily", "Tmax": "1.9 h"}
{"Molecule": "COc1ccnc(C[S+]([O-])c2nc3ccc(OC(F)F)cc3[nH]2)c1OC (stereo not shown)", "assay": "HPLC", "system": "human CYP2C19 normal metabolizers, plasma", "setting": "oral, 40 mg/day, day 5, esomeprazole", "Tmax": "2.75 ± 1.76 h"}
{"Molecule": "CCCCNC(=O)NS(=O)(=O)c1ccc(C(=O)O)cc1", "system": "human", "setting": "oral, 500 mg", "Tmax": "~4 h"}
{"Molecule": "Nc1ncc(-c2cnn(CCO)c2)c2scc(-c3ccc(NC(=O)Nc4cccc(F)c4)cc3)c12", "system": "human patients, plasma", "setting": "oral, all doses pooled, first dose, single dose", "Tmax": "~3 h"}
{"Molecule": "C[C@H]1CN(C2COC2)CCN1c1ccc(Nc2cc(-c3ccnc(N4CCn5c(cc6c5CC(C)(C)C6)C4=O)c3CO)cn(C)c2=O)nc1", "system": "healthy human, both sexes, plasma", "setting": "oral, 100 mg, together with: itraconazole oral solution 200 mg, steady state", "Tmax": "3.46 ± 2.58 h"}
{"Molecule": "C=C(C)[C@@H]1CC[C@]2(NCCN3CCS(=O)(=O)CC3)CC[C@]3(C)[C@H](CC[C@@H]4[C@@]5(C)CC=C(C6=CC[C@@](CF)(C(=O)O)CC6)C(C)(C)[C@@H]5CC[C@]43C)[C@@H]12", "system": "human, plasma", "setting": "oral, 200 mg multiple doses, day 1", "Tmax": "4 h"}
{"Molecule": "N#C[C@@H]1C[C@@H]2C[C@@H]2N1C(=O)[C@@H](N)C12CC3CC(CC(O)(C3)C1)C2", "system": "healthy human subjects, plasma", "setting": "oral, 10 mg, day 10, median, together with: diltiazem extended-release 360 mg", "Tmax": "0.5 h"}
{"Molecule": "COC(=O)C(c1ccccc1Cl)N1CCC(S)C(=CC(=O)O)C1 (stereo not shown)", "system": "human patients, CYP3A4 wt/wt, plasma", "setting": "oral, 75 mg clopidogrel daily, day 7, median", "Tmax": "1 h"}
{"Molecule": "C[C@H]1CNCCCN1S(=O)(=O)c1cccc2cncc(F)c12", "system": "human, male, plasma", "setting": "ocular instillation, 1 drop per eye twice daily, day 8, median, together with: brimonidine fixed-dose combination", "Tmax": "0.083 h"}
{"Molecule": "O=c1[nH]c(=O)c(Cc2cccc(C(F)(F)F)c2)c([C@H]2CC[C@H](c3ccccc3)CC2)[nH]1", "system": "human, fasted, plasma", "setting": "oral, 1500 mg single dose, median", "Tmax": "4 h"}
{"Molecule": "CC#CC(=O)NCCCC(=O)c1nc(-c2ccc(C(=O)Nc3ccccn3)cc2)c2c(N)nccn12", "system": "human, healthy control, plasma", "setting": "oral, 50 mg acalabrutinib, single, median", "Tmax": "1.5 h"}
{"Molecule": "CCCNS(=O)(=O)Nc1ncnc(OCCOc2ncc(Br)cn2)c1-c1ccc(Br)cc1", "system": "healthy male humans, plasma", "setting": "0.2 to 600 mg, median, fasted, across dose groups", "Tmax": "8 to 30 h"}
{"Molecule": "NC(=O)N1CCC(CC(=O)N2CCC([C@H]3c4ncc(Br)cc4CCc4cc(Cl)cc(Br)c43)CC2)CC1", "system": "human, plasma", "setting": "oral, 100 mg twice daily, cycle 2 day 15, multiple dose, median, together with: gemcitabine 1000 mg/m2", "Tmax": "5.5 h"}
{"Molecule": "Cc1ccc(NC(=O)c2ccc(CN3CCN(C)CC3)cc2)cc1Nc1nccc(-c2cncc(-c3oncc3C)c2)n1", "system": "older healthy human adults, plasma", "setting": "oral, 325 mg single dose, fed, mean", "Tmax": "5.65 h"}
{"Molecule": "N[C@@H](Cc1ccc(O)c(O)c1)C(=O)O", "assay": "dry-powder inhaler", "system": "human, plasma", "setting": "inhalation, 60 mg", "Tmax": "≤ 0.25 h and 0.167 h and 0.0833 h"}
{"Molecule": "[13C7]venetoclax", "system": "human, plasma", "setting": "intravenous, 100 µg, 15 min infusion, together with: venetoclax 100 mg oral", "Tmax": "0.25 h"}
{"Molecule": "COc1ccc2nc([S@@+]([O-])Cc3ncc(C)c(OC)c3C)[nH]c2c1", "assay": "HPLC", "system": "human CYP2C19 ultra-rapid metabolizers, plasma", "setting": "oral, 40 mg/day, day 1, pantoprazole", "Tmax": "4.5 ± 0.87 h"}
{"Molecule": "CCCC[C@H](NC(C)=O)C(=O)N[C@H]1CC(=O)NCCCC[C@@H](C(=O)O)NC(=O)[C@H](Cc2c[nH]c3ccccc23)NC(=O)[C@H](CCCN=C(N)N)NC(=O)[C@@H](Cc2ccccc2)NC(=O)[C@H](Cc2cnc[nH]2)NC1=O", "system": "human, plasma", "setting": "subcutaneous, 1.75 mg, second dose", "Tmax": "0.55 h"}
{"Molecule": "CNC(=O)c1ccccc1Sc1ccc2c(/C=C/c3ccccn3)n[nH]c2c1", "system": "human, fed, plasma", "setting": "oral, 5 mg single dose, median", "Tmax": "4.1 h"}
{"Molecule": "CS(=O)(=O)n1cc2c(n1)CN([C@H]1CO[C@H](c3cc(F)ccc3F)[C@@H](N)C1)C2", "system": "healthy male human, plasma", "setting": "oral, 50 mg once weekly, day 1, fasted, median", "Tmax": "4 h"}
